Assay results collected from several papers.
Values joined by “and” are separate records of one study, mostly repeats; a detail may differ. Numbers after ± are the reported error.
inhA: Enoyl-[acyl-carrier-protein] reductase [NADH] (inhA, Mycobacterium tuberculosis, UniProt P9WGR1)
ACHE: Acetylcholinesterase (ACHE, Homo sapiens, UniProt P22303)
OPRM1: Mu-type opioid receptor (OPRM1, Homo sapiens, UniProt P35372)
Neuronal acetylcholine receptor; alpha9/alpha10: Neuronal acetylcholine receptor; alpha9/alpha10 (Homo sapiens, UniProt Q9GZZ6+Q9UGM1)

Chains of the proteins cited; added tags and fusions are not shown. Lines headed by an entry give the natural chain unless they say otherwise; changes in a name come on top. Residues count along the entry.
UniProt P9WGR1, whole entry: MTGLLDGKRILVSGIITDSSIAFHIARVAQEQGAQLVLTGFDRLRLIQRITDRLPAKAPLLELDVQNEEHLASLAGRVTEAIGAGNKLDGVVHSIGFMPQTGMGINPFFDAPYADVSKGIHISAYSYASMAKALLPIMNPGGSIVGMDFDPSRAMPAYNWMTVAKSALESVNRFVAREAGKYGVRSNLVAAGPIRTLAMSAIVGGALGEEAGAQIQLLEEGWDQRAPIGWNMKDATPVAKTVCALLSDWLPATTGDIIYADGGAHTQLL
UniProt P35372, whole entry: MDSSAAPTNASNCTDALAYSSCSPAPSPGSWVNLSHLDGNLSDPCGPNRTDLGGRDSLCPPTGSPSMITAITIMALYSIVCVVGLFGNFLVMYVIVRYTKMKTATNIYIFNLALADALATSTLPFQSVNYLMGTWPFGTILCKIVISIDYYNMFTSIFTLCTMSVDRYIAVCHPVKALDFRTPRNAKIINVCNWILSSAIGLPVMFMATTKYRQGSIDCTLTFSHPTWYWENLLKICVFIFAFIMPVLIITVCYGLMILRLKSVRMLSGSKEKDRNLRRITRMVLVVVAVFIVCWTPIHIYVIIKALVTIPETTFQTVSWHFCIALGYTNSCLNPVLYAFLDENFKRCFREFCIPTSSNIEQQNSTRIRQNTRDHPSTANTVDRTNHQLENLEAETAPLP
UniProt Q9GZZ6, 25-450 limits assumed: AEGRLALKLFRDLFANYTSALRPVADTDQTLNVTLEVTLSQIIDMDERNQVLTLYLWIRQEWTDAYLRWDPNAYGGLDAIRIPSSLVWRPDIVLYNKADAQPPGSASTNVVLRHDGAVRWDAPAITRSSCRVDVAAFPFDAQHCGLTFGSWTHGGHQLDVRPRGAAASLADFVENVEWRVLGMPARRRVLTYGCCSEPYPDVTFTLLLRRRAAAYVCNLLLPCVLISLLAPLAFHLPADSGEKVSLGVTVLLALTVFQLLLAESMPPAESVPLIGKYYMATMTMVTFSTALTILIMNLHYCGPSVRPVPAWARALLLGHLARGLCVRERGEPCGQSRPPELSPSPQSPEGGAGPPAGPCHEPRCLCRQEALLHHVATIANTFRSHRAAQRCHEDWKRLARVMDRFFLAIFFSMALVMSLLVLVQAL
UniProt Q9UGM1, 26-479 limits assumed: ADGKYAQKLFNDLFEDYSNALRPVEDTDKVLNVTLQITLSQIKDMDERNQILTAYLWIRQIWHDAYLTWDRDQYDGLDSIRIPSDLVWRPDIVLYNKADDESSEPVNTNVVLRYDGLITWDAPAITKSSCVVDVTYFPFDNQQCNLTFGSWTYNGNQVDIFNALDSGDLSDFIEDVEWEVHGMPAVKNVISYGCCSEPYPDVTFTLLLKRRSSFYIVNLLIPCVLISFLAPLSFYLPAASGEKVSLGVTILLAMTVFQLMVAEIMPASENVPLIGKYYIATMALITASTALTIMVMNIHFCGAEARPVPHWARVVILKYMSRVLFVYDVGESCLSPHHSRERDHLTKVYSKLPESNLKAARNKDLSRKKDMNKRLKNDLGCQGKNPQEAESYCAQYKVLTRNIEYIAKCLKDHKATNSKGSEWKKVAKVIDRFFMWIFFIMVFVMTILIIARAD
UniProt Q9UGM1, whole entry, looked up: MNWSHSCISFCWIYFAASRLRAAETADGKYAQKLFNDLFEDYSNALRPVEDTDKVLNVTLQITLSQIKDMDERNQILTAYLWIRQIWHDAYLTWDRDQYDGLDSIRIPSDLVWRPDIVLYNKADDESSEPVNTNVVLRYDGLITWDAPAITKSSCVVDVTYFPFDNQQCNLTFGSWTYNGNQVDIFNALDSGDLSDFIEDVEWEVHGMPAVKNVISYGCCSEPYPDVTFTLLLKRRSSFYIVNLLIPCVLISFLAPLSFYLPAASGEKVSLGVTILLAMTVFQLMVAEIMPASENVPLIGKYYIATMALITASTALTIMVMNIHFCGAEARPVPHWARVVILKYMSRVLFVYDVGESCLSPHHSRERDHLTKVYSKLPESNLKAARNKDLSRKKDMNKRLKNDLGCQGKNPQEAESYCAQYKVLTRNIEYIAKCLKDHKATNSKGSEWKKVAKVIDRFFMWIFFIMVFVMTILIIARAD
UniProt P42866, whole entry: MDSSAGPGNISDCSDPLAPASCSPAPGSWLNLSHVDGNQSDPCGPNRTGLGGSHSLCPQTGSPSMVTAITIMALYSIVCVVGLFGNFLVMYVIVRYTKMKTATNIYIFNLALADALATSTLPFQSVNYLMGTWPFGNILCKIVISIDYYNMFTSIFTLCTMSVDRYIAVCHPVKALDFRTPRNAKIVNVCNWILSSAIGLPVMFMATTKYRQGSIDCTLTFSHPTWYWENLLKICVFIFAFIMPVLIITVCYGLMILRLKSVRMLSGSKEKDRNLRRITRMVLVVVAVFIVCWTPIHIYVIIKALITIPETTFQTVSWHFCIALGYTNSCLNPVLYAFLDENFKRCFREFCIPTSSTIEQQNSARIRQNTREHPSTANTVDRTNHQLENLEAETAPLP
UniProt P9WNX1, whole entry: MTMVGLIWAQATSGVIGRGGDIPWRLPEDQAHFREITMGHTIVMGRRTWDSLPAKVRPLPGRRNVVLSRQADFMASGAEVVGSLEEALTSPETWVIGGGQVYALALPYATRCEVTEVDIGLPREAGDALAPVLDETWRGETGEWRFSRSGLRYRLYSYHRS
UniProt P23977, whole entry: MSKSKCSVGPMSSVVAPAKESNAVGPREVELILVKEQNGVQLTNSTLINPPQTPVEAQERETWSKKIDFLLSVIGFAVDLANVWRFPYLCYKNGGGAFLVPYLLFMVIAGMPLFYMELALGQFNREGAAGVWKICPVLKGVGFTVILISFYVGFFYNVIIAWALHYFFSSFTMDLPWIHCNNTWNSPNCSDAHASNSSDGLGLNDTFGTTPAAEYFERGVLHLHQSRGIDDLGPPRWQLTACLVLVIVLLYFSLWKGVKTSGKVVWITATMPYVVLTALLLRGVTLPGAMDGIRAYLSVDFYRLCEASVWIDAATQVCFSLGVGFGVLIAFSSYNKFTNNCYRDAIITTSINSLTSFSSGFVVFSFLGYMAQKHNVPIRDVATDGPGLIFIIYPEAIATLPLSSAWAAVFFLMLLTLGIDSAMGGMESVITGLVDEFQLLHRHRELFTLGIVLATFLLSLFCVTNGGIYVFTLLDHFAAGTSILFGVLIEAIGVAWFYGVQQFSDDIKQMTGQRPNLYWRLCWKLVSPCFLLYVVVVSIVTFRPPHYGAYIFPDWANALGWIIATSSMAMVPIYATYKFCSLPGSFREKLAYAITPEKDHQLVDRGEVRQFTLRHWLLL
UniProt P52333, 812-1124 limits assumed: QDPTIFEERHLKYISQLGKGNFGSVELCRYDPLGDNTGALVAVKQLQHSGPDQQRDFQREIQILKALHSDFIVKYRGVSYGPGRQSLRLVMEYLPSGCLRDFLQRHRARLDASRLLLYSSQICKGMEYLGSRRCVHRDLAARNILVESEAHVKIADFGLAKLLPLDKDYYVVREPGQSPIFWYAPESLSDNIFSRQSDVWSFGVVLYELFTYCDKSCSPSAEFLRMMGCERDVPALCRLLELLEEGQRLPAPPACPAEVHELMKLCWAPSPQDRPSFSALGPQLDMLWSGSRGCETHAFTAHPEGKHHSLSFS
UniProt Q9P0L9, whole entry F549I: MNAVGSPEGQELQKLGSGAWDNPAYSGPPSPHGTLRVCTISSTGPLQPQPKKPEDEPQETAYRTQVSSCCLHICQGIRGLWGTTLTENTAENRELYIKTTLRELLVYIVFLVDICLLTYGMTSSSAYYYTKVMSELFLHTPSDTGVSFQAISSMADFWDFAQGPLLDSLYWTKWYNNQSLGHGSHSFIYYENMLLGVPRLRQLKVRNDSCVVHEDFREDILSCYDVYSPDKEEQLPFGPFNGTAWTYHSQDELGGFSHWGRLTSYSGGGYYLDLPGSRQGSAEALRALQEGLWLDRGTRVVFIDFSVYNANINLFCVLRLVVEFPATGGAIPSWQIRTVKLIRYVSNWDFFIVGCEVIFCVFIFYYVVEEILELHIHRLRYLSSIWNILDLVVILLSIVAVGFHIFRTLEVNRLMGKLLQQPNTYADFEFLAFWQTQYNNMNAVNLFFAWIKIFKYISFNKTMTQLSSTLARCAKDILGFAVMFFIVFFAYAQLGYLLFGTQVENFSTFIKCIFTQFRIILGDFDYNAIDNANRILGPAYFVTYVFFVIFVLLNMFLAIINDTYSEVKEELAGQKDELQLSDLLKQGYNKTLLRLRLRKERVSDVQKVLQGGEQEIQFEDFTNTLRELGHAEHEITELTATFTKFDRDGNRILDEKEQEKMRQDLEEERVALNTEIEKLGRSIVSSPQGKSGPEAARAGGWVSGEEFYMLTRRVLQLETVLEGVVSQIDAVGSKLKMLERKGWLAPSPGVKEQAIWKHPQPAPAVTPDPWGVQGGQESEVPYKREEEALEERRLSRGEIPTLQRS
UniProt O95551, whole entry: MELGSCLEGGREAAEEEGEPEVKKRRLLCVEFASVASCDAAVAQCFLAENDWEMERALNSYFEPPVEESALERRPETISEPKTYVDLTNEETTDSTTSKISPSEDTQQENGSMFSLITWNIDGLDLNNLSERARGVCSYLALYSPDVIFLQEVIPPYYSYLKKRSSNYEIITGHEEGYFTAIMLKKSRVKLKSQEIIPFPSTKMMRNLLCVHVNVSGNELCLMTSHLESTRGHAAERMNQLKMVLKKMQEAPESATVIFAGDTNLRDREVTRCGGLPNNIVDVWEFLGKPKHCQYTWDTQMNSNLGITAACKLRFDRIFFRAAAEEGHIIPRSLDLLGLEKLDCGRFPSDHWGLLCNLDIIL
UniProt P20309, whole entry: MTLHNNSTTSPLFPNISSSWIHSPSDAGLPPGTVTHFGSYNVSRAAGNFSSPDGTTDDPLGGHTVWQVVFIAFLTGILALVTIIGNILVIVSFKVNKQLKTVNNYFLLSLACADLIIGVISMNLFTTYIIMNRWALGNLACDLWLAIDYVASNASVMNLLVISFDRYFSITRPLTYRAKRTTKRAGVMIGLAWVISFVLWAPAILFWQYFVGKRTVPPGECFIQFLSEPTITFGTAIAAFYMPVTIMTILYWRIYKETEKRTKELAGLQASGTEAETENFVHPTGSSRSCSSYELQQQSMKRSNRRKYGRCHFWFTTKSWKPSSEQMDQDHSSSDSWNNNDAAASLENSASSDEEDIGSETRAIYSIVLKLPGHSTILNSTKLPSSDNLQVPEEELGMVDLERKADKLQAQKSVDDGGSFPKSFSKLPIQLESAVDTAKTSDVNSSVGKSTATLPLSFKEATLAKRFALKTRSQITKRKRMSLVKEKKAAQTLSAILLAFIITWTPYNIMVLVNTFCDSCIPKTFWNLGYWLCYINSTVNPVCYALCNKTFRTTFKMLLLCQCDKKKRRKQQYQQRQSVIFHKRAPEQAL
UniProt O15393, whole entry S251D/R252D/Q253D/S254D/R255K, looked up: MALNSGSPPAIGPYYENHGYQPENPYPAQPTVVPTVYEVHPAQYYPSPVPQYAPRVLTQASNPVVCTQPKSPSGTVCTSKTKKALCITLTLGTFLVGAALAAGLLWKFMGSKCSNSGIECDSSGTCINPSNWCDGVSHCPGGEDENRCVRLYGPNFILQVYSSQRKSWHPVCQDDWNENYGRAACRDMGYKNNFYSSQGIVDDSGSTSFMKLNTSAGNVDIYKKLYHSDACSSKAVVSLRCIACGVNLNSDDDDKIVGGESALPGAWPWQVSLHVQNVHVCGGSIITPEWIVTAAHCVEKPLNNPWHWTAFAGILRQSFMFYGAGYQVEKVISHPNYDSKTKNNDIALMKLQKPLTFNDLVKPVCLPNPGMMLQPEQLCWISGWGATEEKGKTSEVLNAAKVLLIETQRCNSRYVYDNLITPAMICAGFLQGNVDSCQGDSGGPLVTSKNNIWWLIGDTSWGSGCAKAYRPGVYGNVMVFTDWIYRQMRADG
UniProt R4P353, 1-724 S562A limits assumed: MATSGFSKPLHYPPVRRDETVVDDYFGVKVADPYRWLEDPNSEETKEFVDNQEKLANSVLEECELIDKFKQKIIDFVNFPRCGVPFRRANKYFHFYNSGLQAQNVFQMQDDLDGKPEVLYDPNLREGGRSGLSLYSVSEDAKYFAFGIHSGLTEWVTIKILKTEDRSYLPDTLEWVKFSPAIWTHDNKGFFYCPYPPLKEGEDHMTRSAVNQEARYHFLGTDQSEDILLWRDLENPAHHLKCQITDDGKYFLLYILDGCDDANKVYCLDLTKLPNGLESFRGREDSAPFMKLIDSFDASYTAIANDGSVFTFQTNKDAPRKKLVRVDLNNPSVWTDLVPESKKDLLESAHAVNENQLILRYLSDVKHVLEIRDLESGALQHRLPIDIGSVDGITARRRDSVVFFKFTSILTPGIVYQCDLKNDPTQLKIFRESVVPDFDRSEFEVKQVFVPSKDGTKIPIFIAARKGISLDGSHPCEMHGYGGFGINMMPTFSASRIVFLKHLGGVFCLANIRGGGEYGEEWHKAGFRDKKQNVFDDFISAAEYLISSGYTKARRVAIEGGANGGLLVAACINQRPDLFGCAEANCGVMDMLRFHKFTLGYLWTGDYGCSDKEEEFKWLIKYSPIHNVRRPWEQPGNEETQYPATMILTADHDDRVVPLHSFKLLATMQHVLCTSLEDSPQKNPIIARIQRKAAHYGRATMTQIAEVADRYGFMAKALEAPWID

`NC[C@@H](NC[C@@H]1CCCN1C[C@@H](CO)NC[C@@H](NCCC1CC2CCC1C2)c1ccccc1)c1ccccc1` (stereo partly shown) — result for “potentiation of amikacin”: 1 fold (Klebsiella pneumoniae; bacterial growth; 8 µM, fold shift of IC90, together with: amikacin).
Under “reverse isomerization rate k6”, `N#Cc1ccccc1Oc1ccc(Cn2cc(C3CCCCC3)nn2)cc1O` is recorded as 0.0084 ± 0.0017 min⁻¹ (inhA; 20 °C, EI* to EI).
The Emax of `O=C(N[C@@H]1CC[C@@]2(O)[C@H]3Cc4ccc(O)c5c4[C@@]2(CCN3CC2CC2)[C@H]1O5)c1ccncc1F` is reported as 156 ± 13.8 net fmol/mg (Oprm1 (Mus musculus, UniProt P42866); G protein activation; 1 µM, 24 h pretreatment, together with: DAMGO).
`O=C(NC1CCN(c2ncnc3[nH]cnc23)CC1)c1cccc(S(=O)(=O)Nc2ccc(Cl)cc2)c1` gave a viability of 100% (A549-ACE2; 22.22 µM).
`N#Cc1ccccc1Oc1ccc(Cn2cc(C3CCCC3)nn2)cc1O`: “reverse isomerization rate k6” 0.0094 ± 0.0018 min⁻¹ (inhA; 20 °C, EI* to EI).
The Vmax of `O=C(C1CCN(Cc2cccc3ccccc23)CC1)N1CCc2ccccc2C1` is reported as 0.097 absorbance units/min (ache (Electrophorus electricus, UniProt O42275); enzyme activity, inhibitor, Ellman; 64.4 µM, together with: acetylthiocholine iodide).
`NC1=NC2(CCCCC2)N(c2ccc(OCc3cn(CCCCOc4ccc(CCC(=O)O)c(O)c4)nn3)cc2)C(N)=N1` has a selectivity ratio of 188 fold (folA (Mycobacterium tuberculosis, UniProt P9WNX1); enzyme activity; relative to: human over M. tuberculosis).
With `O=C(NCCN1CCC2(CC1)C(=O)NCN2Cc1cccnc1)c1ccc2ccccc2c1` the selectivity ratio was over 80 fold (Phospholipase D2 (Homo sapiens, UniProt O14939); cell-based; relative to: PLD1 IC50 over PLD2 IC50).
For `CC(CCN[C@H](CN[C@H](CO)CN1CCC[C@H]1CN[C@H](CN)c1ccccc1)c1ccccc1)c1ccccc1` (stereo partly shown), “potentiation of amikacin” read 1 fold (Klebsiella pneumoniae; bacterial growth; 8 µM, fold shift of IC90, together with: amikacin).
With `CSCC[C@H](NC(=O)[C@H](Cc1ccccc1)NC(=O)CNC(=O)CNC(=O)[C@@H](N)Cc1ccc(O)cc1)C(=O)O` the Km was 106 µM (aminopeptidase III peak, rat; substrate; together with: NAP-2).
`NCCNCCSc1ccccc1` has an unbound concentration of 39000 ± 850 ng/mL (ultrafiltration; mouse plasma, female; 50 µg/mL, 60 min, 37 °C).
`Cc1ccccc1Oc1ccc(Cn2cc(C3CC3)nn2)cc1O` has a residence time of 190 ± 10 min (inhA; enzyme inhibition, inhibitor, progress curve analysis; 20 °C).
`c1cc[n+](CCCCCCCCCC[n+]2cccc3ccccc32)cc1` has a selectivity ratio of 630 (ACHE; relative to: BChE IC50 over AChE IC50).
For `CC(C)C[C@@H](NC(=O)[C@H](NC(=O)[C@H]1CCCN1)[C@H](C)O)C(=O)N[C@H](Cc1c[nH]cn1)C(=O)N[C@@H](C(=O)N[C@H](Cc1c[nH]cn1)C(=O)N[C@H](CC(N)=O)C(=O)N[C@H](CCCNC(=N)N)C(=O)N[C@H](CCCNC(=N)N)C(=O)N[C@H](CCCNC(=N)N)C(=O)N[C@H](CCCNC(=N)N)C(=O)N[C@H](CCCNC(=N)N)C(N)=O)[C@H](C)O`, “time above LLOQ” read at most 48 h (healthy human, plasma; oral, 320 mg single dose, LLOQ 0.5 ng/mL).
`CC[C@H](C)[C@H](NC(=O)[C@@H]1CCCN1C(=O)[C@H](C)NC(=O)CNC(=O)CNC(=O)[C@H](CCCCN)NC(=O)[C@H](CC(C)C)NC(=O)[C@H](CCCNC(=N)N)NC(=O)[C@H](Cc1ccccc1)NC(=O)c1ccc(N=Nc2ccc(N(C)C)cc2)cc1)C(=O)N[C@@H](CCCCN)C(=O)NCC(=O)N[C@H](C(=O)NCCNc1cccc2c(S(=O)(=O)O)cccc12)C(C)C` has a Km of 32.1 ± 12 µM (Replicase polyprotein 1ab, papain-like protease 2 (rep, Porcine epidemic diarrhea virus, UniProt P0C6Y4, I1722L/N1686S/T1724W); substrate).
`CCNC(C)Cc1ccc2c(c1)OCO2` (stereo not shown) has an Emax of 61 ± 2% (Slc6a3 (Rattus norvegicus, UniProt P23977); dopamine release, releaser; rat brain synaptosomes; relative to: maximal release).
`COC(=O)[C@@H](CS)N1C(=O)c2ccc(N(C)C)cc2C1=O` gave a fluorescence increase of 6 fold (VIM-2 (Escherichia coli, UniProt Q5U7L7); probe; 10 µM, probe:enzyme 1:3, together with: ZnSO4 10 µM; relative to: probe alone).
With `Oc1cccc2c1OC1CCCC3CN(CC4CC4)CCC231` (single isomer, unassigned) the Ke was 0.22 nM (OPRM1; antagonist; together with: DAMGO).
For `C[C@H](CS)C(=O)N[C@@H](Cc1c[nH]c2ccccc12)C(=O)O`, “MIC of meropenem” read 8 µg/mL (Klebsiella pneumoniae; IMP-1 producing; 50 µM, together with: meropenem).
For `CN1CC[C@]23c4c5ccc(O)c4O[C@H]2c2ncc(-c4ccc(Cl)cc4)cc2C[C@@]3(OCCCc2ccccc2)[C@H]1C5`, the Emax was 118 ± 1% (OPRM1; agonist; relative to: DAMGO).
`C=CC(=O)Nc1cc(-n2c(=O)ccc3cnc4ccc(-c5cn[nH]c5)cc4c32)ccc1C` has a remaining binding of 0% (JAK3 (Homo sapiens, UniProt P52333); KinomeScan binding; 1 µM).
With `CC[C@H](C)[C@@H]1NC(=O)[C@H](CCC(=O)O)NC(=O)[C@@H]2CCCN2C(=O)[C@H](Cc2c[nH]cn2)NC(=O)[C@H](CC(=O)O)NC(=O)[C@H](Cc2ccc(O)cc2)NC(=O)[C@H](CC(N)=O)NC(=O)[C@@H]2CSSC[C@@H]3NC(=O)CNC(=O)COCCOCCOCCOCCOCCOCCNC(=O)[C@H](CSSC[C@H](NC3=O)C(=O)N[C@@H](CO)C(=O)N[C@@H](CC(=O)O)C(=O)N3CCC[C@H]3C(=O)N[C@@H](CCCNC(=N)N)C(=O)N2)NC1=O` the inhibition was about 50% (Neuronal acetylcholine receptor; alpha9/alpha10; ACh-evoked current, two-electrode voltage clamp; Xenopus oocytes; 1 µM, together with: ACh 6 µM).
For `CN(C(=O)Cc1ccc(Cl)c(Cl)c1)C1CCCCC1N1CCCC1` (stereo not shown), “loss of potency” read 2 (PKD2L1 (Homo sapiens, UniProt Q9P0L9, F549I); ion current; mutant F549I, unit not given; relative to: wild type).
`N#Cc1ccc(-c2ccc(COCCc3ccc(-c4nc5cc(-c6ccccc6)ccn5c4Nc4ccc(C(=O)O)cc4)cc3)cc2)nc1` gave a selectivity of 36 fold (TDP2 (Homo sapiens, UniProt O95551); relative to: TDP1 potency over TDP2 potency).
The uptake of `[11CH3]Nc1ccc(C(=O)C2CCN(C3Cc4ccccc4CC3O)CC2)cc1` (single isomer, unassigned) is reported as 0.265 %ID/g (Sprague-Dawley rat, hippocampus; 30 min).
`Cc1ccc(-c2csc(NP(=O)(O)OCC3OC(n4c[n+](Cc5ccccc5)c5c(=O)[nH]c(NC(=O)c6ccccc6)nc54)C4OC(C)(C)OC34)n2)cc1` (stereo not shown) has a decrease of 25.6% (Eukaryotic translation initiation factor 4E, phosphorylated (EIF4E, Homo sapiens, UniProt P06730); measured: EIF4E expression; MCF7; relative to: untreated).
The selectivity ratio of `c1cc[n+](CCCCCCCCCC[n+]2ccccc2)cc1` is reported as 12.5 (ACHE; relative to: BChE IC50 over AChE IC50).
`COc1ccc(CN[C@@H]2CO[C@H](C(c3ccccc3)c3ccccc3)C[C@H]2O)cc1` has an inhibition of -3.1% (CHRM3 (Homo sapiens, UniProt P20309); radioligand binding; 10 µM, together with: [3H]QNB).
Under “isomerization rate k5”, `Oc1cc(Cn2cc(C3CC3)nn2)ccc1Oc1ccccc1Cl` is recorded as 1.1 min⁻¹ (inhA; 20 °C, EI to EI*).
The bias factor of `COC(=O)[C@@H]1C=C(OC(=O)c2ccc(O)cc2)C(=O)[C@H]2[C@@]1(C)CC[C@H]1C(=O)O[C@H](c3ccoc3)C[C@]21C` is reported as 2.13 (Mu-type opioid receptor, with beta-arrestin-2 (OPRM1, Homo sapiens, UniProt P35372); β-arrestin-2 vs cAMP, agonist; relative to: DAMGO, higher = β-arrestin-2 bias).
Under “isomerization rate k5”, `N#Cc1ccccc1Oc1ccc(Cn2cc(C3CC3)nn2)cc1O` is recorded as 1.4 min⁻¹ (inhA; 20 °C, EI to EI*).
For `CC(C)(C)O[C@@H]1C[C@@H](C(=O)N[C@H](Cc2ccccc2)C(=O)C(=O)NCc2ccc(Cl)cn2)N(C(=O)[C@@H](NC(=O)C2CCC(F)(F)CC2)C2CCCCC2)C1`, the inhibition was -1.03% and -4.9% and -5.67% (TMPRSS2 (Homo sapiens, UniProt O15393, Q253D/R252D/R255K/S251D/S254D); enzyme activity, inhibitor; 18.52 µM).
`C[C@@H]1NC(=O)[C@H](CCCNC(=N)N)NC(=O)[C@H](CCCNC(=N)N)NC(=O)[C@@H]2CCCN2C(=O)[C@H](CO)NC(=O)[C@@H]2CSSC[C@H](NC(=O)CN)C(=O)N[C@@H](CSSC[C@@H](C(N)=O)NC(=O)[C@H](CO)NC(=O)[C@H](CCCNC(=N)N)NC1=O)C(=O)N[C@@H](CO)C(=O)N[C@@H](Cc1c[nH]cn1)C(=O)N1CCC[C@H]1C(=O)N[C@@H](C)C(=O)N2`: “recovery of response” 3 ± 2% (Neuronal acetylcholine receptor; alpha9/alpha10; ion current, antagonist; Xenopus oocytes; 10 µM, 5 min, after washout, together with: acetylcholine; relative to: control).
`CC(C)[C@H](NC(=O)[C@@H]1CCCN1C(=O)[C@H](C)NC(=O)[C@H](CO)NC(=O)[C@H](C)NC(=O)[C@H](CC(N)=O)NC(=O)[C@H](CCC(=O)O)NC(=O)[C@@H](NC(=O)[C@H](CC(=O)O)NC(=O)[C@H](CCCCN)NC(=O)[C@H](C)NC(=O)[C@H](CCC(N)=O)NC(=O)[C@H](Cc1ccccc1)NC(=O)[C@H](C)NC(=O)[C@H](Cc1c[nH]c2ccccc12)NC(=O)[C@H](C)NC(=O)[C@@H](NC(=O)CN)C(C)C)C(C)C)C(=O)O` has a binding stoichiometry of 1 (Peptide cyclase 1 (Gypsophila vaccaria, UniProt R4P353, S562A); isothermal titration calorimetry; concentration not given, pH 8.0, 25 °C).

A few entries again:
The uptake of `[11CH3]Nc1ccc(C(=O)C2CCN(C3Cc4ccccc4CC3O)CC2)cc1` (single isomer, unassigned) is reported as 0.265 %ID/g (Sprague-Dawley rat, hippocampus; 30 min).
With `CSCC[C@H](NC(=O)[C@H](Cc1ccccc1)NC(=O)CNC(=O)CNC(=O)[C@@H](N)Cc1ccc(O)cc1)C(=O)O` the Km was 106 µM (aminopeptidase III peak, rat; substrate; together with: NAP-2).
